Results pooled from the literature.
Each line is one published result; not all experiments were run side by side. Numbers after ± are the reported error.

SMILES = CCO[C@H]1CCN(Cc2c(OC)cc(C)c3[nH]ccc23)[C@H](c2ccc(C(=O)O)cc2)C1; test system = human mild hepatic impairment, plasma; conditions = oral, 200 mg single dose, geometric mean; endpoint = unbound AUC(0-12); value = 4440 ng·h/mL
SMILES = N[C@@H]1c2ccccc2OC12CCN(c1cnc3c(N4CCCc5ncccc54)n[nH]c3n1)CC2; test system = advanced metastatic solid tumour patients, plasma; conditions = oral, 10 mg once daily, cycle 1 day 1, geometric mean; endpoint = AUC(0-tau); value = 1170 ng·h/mL
SMILES = O=C1OC[C@H](Cc2cccc(O)c2)[C@H]1Cc1cccc(O)c1; test system = human plasma; conditions = mean, both sexes; endpoint = plasma concentration; value = 608 nM
SMILES = C[C@H]1O[C@@H](O[C@H]2[C@@H](O)C[C@H](O[C@H]3[C@@H](O)C[C@H](O[C@H]4CC[C@@]5(C)[C@H](CC[C@@H]6[C@@H]5C[C@@H](O)[C@]5(C)[C@@H](C7=CC(=O)OC7)CC[C@]65O)C4)O[C@@H]3C)O[C@@H]2C)C[C@H](O)[C@@H]1O; test = item: dizziness; test system = healthy men; conditions = oral, dose not given, 8 days, treatment-emergent, crossover trial; endpoint = subjects with adverse event; value = 4.5%
SMILES = Cc1cc(O)c2c(c1)C(=O)c1cc(O)cc(O)c1C2=O; target or system = HepaRG co-cultured with HK-2; test = MTT; conditions = 33.33 µM, 24 h; how to read = baseline: untreated control; endpoint = cell viability; value = 88.7 ± 12.9%
SMILES = O=C(COc1ccc(Cl)cc1)NC12CC(c3nnc([C@H]4C[C@@H](OC(F)(F)F)C4)o3)(C1)C2; test system = human both sexes; conditions = oral, 200 mg once daily, 14 days; endpoint = drug-related TEAE participants; value = 71.4%
SMILES = CO[C@H]1/C=C/O[C@@]2(C)Oc3c(C)c(O)c4c(O)c(c(/C=N/N5CCN(C)CC5)c(O)c4c3C2=O)NC(=O)/C(C)=C\C=C\[C@H](C)[C@H](O)[C@@H](C)[C@@H](O)[C@@H](C)[C@H](OC(C)=O)[C@@H]1C; test = starch gel membrane permeability; test system = Gram-negative envelope surrogate; conditions = 200 µM, 90 min, pH 7.4; endpoint = amount permeated; value = 3.16 nmol
SMILES = CCC(C)n1ncn(-c2ccc(N3CCN(c4ccc(OCC5COC(Cn6cncn6)(c6ccc(Cl)cc6Cl)O5)cc4)CC3)cc2)c1=O (stereo not drawn); test system = human, plasma; conditions = oral, dose not given, day 17 predose, median; endpoint = trough plasma concentration; value = 161 ng/mL
SMILES = COc1c(O[C@@H]2O[C@H](CO)[C@@H](O)[C@H](O)[C@H]2O)c(C)cc2c1C(=O)c1c(O)cccc1C2=O; target or system = HepaRG co-cultured with HK-2; test = MTT; conditions = 33.33 µM, 24 h; how to read = baseline: untreated control; endpoint = cell viability; value = 74.5 ± 10.5%
SMILES = NC[C@H]1O[C@H](O[C@H]2[C@H](O)[C@@H](O[C@H]3O[C@H](CO)[C@@H](O)[C@H](N)[C@H]3O)[C@H](N)C[C@@H]2N)[C@H](N)C[C@@H]1O; test = starch gel membrane permeability; test system = Gram-negative envelope surrogate; conditions = 200 µM, 90 min, pH 7.4; endpoint = amount permeated; value = 2.34 nmol
SMILES = C[C@H]1Oc2cc(cnc2N)-c2c(nn(C)c2C#N)CN(C)C(=O)c2ccc(F)cc21; test system = human patients, plasma; conditions = oral, dose not given, cycle 2 day 1, median, with: avelumab; endpoint = AUCtau, dose-normalized; value = 61 ng·h/mL/mg
SMILES = COc1ccc([C@@H](O)c2cc(-c3ncnc4cc(N5CCOCC5)ccc34)c(F)cc2Cl)nn1; test system = healthy volunteers, plasma; conditions = oral, 100 mg, tablet, fasted, median; endpoint = tlag; value = 0 h
SMILES = CN(Cc1cnc2nc(N)nc(N)c2n1)c1ccc(C(=O)N[C@@H](CCC(=O)O)C(=O)O)cc1; test = lipid PAMPA; test system = PBS; conditions = 10 µM, 16 h, pH 7.4, 25 °C; endpoint = permeability (Pe); value = < 0.00102 ×10⁻⁶ cm/s
SMILES = COc1ncc(-c2nc3c(n2C(C)C)[C@H](c2ccc(Cl)cc2)N(c2cc(Cl)cn(C)c2=O)C3=O)c(OC)n1; test = LC-MS/MS; test system = human, plasma; conditions = oral, 1 mg, cycle 1 day 14, low-dose arm; endpoint = AUC(0-last); value = 99.5 ng·h/mL
SMILES = CC(C)n1c(Nc2cccnc2)nc2cnc(Nc3ccc(N4CCN(C)CC4)cc3)nc21; test = item: cardiac disorders (SOC); test system = healthy human, male; conditions = oral, dose not given, CTCAE grade 1-3; endpoint = subjects with TEAE; value = 4.8%
SMILES = CCc1cc(C(=O)NC)c2nccc(N3CCc4c(cc(Cn5ccnc5)cc4-c4cn(C)nc4C(F)(F)F)C3=O)c2c1; test system = Sprague Dawley rat, male, plasma; conditions = intravenous, 3 mg/kg; endpoint = AUC extrapolated fraction; value = 0.3%
SMILES = C[C@H](Cn1cnc2c(N)ncnc21)OCP(=O)(O)O; test system = Macaca nemestrina, plasma; conditions = intravenous, time-averaged; endpoint = minimum DcNP-associated fraction; value = 97%
SMILES = Clc1ccc(C(c2c[nH]c3ccccc23)c2c[nH]c3ccccc23)cc1; target or system = COS-7; conditions = 10 µM, 24 h, 0.1% DMSO, unit not given; how to read = baseline: vehicle control; endpoint = confluence; value = 0.49 ± 0.05
SMILES = CCn1ncc2c1-c1cnc(N)c(c1)O[C@H](C)c1cc(F)ccc1-c1nn(C)nc1C2; test system = athymic nude mouse, female, sample A PDX, plasma; conditions = po, 5 mg/kg BID, 12 h, 5 days dosing; endpoint = Cmin, unbound; value = 100 ± 20 nM
SMILES = COc1cccc2c1C(=O)c1c(O)c3c(c(O)c1C2=O)C[C@@](O)(C(=O)CO)C[C@@H]3O[C@H]1C[C@H](N)[C@H](O)[C@H](C)O1; target or system = COS-7; test = WST-8; conditions = 100 µM, 24 h, 0.1% DMSO, unit not given; how to read = baseline: control; endpoint = metabolic activity; value = 0.7 ± 0.33
SMILES = O=S(=O)(O)Oc1ccc(CCO)cc1; test system = human plasma; conditions = median; endpoint = plasma concentration; value = 127 nM
SMILES = CNC(=O)c1ccc(-c2cnc3ncc(Cc4ccc5ncccc5c4)n3n2)cc1F; test system = Japanese patients; conditions = oral, 400 mg, grade 3/4; endpoint = Malaise dose reduction/interruption; value = 1%
SMILES = Cc1ccc(OS(=O)(=O)O)c(O)c1; test system = human plasma; conditions = median; endpoint = plasma concentration; value = 29300 nM
SMILES = N#Cc1ccc2c(c1)[C@H]1CCCN(C(=O)c3ccc4[nH]cnc4c3)[C@H]1C2; test system = human; conditions = 240 mg, day 7; how to read = baseline: baseline; endpoint = ACTH level change; value = -0.8 pmol/L

For quick reference, copied from above:
SMILES = NC[C@H]1O[C@H](O[C@H]2[C@H](O)[C@@H](O[C@H]3O[C@H](CO)[C@@H](O)[C@H](N)[C@H]3O)[C@H](N)C[C@@H]2N)[C@H](N)C[C@@H]1O; test = starch gel membrane permeability; test system = Gram-negative envelope surrogate; conditions = 200 µM, 90 min, pH 7.4; endpoint = amount permeated; value = 2.34 nmol
SMILES = CCn1ncc2c1-c1cnc(N)c(c1)O[C@H](C)c1cc(F)ccc1-c1nn(C)nc1C2; test system = athymic nude mouse, female, sample A PDX, plasma; conditions = po, 5 mg/kg BID, 12 h, 5 days dosing; endpoint = Cmin, unbound; value = 100 ± 20 nM
SMILES = Cc1cc(O)c2c(c1)C(=O)c1cc(O)cc(O)c1C2=O; target or system = HepaRG co-cultured with HK-2; test = MTT; conditions = 33.33 µM, 24 h; how to read = baseline: untreated control; endpoint = cell viability; value = 88.7 ± 12.9%
